Results pooled from the literature.
Parts stem from different laboratories: compare values within a part only.

Series 1
Target: Centromere-binding protein 1, full length, N-terminal tag (CBF1, Saccharomyces cerevisiae, UniProt P17106, residues 1-351)
Sequence of UniProt P17106 (whole entry, looked up): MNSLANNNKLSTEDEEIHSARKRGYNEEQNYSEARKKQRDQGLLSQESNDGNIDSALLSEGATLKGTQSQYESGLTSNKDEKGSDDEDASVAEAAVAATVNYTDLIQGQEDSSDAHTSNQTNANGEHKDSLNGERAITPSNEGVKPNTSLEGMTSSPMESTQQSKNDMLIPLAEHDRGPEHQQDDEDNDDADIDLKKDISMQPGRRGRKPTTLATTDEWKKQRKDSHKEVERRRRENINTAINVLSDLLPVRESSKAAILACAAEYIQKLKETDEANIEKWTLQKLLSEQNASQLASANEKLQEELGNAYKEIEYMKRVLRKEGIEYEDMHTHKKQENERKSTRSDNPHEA
Method: protein-binding microarray
Form: double-stranded DNA, one strand shown
Matrix: in vitro
Concentration: 0.8 µM
Setting: whole 60-bp probe, no competitor
Reading: higher = stronger binding
Strand | fluorescence intensity
CTAAAAGAGCACCCTCATGATTTCTTGCTCTGCTTCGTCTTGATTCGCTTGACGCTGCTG | 509 a.u.
CTACATCATGGTACTACCGTGACGGAGAATACGTTCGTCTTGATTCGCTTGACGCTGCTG | 660 a.u.
GAAAAAAATCAAACCCATGTGGTCGTCATCCTCTAGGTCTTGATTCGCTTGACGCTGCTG | 632 a.u.
GAATTTCGACCCCATTTCACGTGAATAAAGCGGTAGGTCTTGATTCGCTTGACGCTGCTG | 4420 a.u.
GAAAGTGTCAACGTCCATCTGATATACTATTAGTAGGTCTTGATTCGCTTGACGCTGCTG | 592 a.u.

Series 2
Target: Hepatocyte nuclear factor 3-beta, forkhead domain (FOXA2, Homo sapiens, UniProt Q9Y261, residues 142-269)
Method: protein-binding microarray
Form: double-stranded DNA, one strand shown
Matrix: in vitro
Concentration: not given
Setting: k-mer, scored over probes, only values ≥0.25
Reading: higher = stronger binding
Construct (chain): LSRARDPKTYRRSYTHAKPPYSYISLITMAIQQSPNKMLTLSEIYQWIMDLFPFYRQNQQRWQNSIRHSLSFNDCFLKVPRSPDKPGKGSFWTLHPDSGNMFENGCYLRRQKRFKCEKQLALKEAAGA
Strand | E-score
TCATGCAA | 0.255
ATTCTACA | 0.308
ATTTGTAA | 0.342
GTACTACA | 0.359

Series 3
Target: RNA binding protein fox-1 homolog 2, RRM domain, GST-SBP tag (RBFOX2, Homo sapiens, UniProt O43251-10, residues 100-194)
Method: RNA Bind-n-Seq
Form: RNA
Matrix: in vitro
Concentration: 365 nM
Setting: natural RNA segment, single round, ends assumed
Baseline: no-protein control
Reading: higher = stronger binding
Residues (chain): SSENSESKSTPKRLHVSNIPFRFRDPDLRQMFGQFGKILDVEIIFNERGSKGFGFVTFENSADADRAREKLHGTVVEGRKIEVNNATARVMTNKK
Strand | RBNS enrichment (R)
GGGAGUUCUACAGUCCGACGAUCUUUGCUCGUCUGUAAUAGUUAUGUAUGAAGGACUCUUAAUUGCAACUGAAAAGGUCGUGUAUAGGUUAGAGAUACAGGGAGCCCAUUUUAUAUUUGCAUACCCUUUUAUUUGGAAUUCUCGGGUGCCAA | 2.42
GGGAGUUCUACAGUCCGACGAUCCAUUGGAUUGUUAGGGAUAGGCAGCAGGGCUGAGGCAAGGUAGGCCAACUGCACCCCUGUCGCCUGGAGGAGGGCCAGCUCGCUGCCCGAGCUCUGGCCUAGGGACCUUGUGGAAUUCUCGGGUGCCAA | 0.336
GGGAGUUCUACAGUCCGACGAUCUUUUAAAUCCUUUAAAAACACUCACCAUAUAAACUUGCAUUUGAGCUUGUGUGUUCUUUUGUUAAUGUGUAGAGUUCUCCUUUCUCGAAAUUGCCAGUGUGUACUUGGCUUGGAAUUCUCGGGUGCCAA | 1.5
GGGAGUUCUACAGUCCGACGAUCUGAAAACAAUUUUUUUGAAUCUUUCUUAGCCUAAAAGACCCAUUUUCCUUGGAACAUGUAAGAACUGUGCAGUAGCCAUUUAUGGUUUAAAGUAAACAGGCCAGAUGAACUGGAAUUCUCGGGUGCCAA | 0.325
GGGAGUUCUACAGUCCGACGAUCAUGUUACGUCCUCCCCCCACCCCCUUCUUUCAGUGGUAUGCAACCACUGCAAUCACUGUGCAUAUGUCUUUUCUUAGCAAAAGGAUUUUAAAACUUGAGCCCUGGACCUUUGGAAUUCUCGGGUGCCAA | 0.791
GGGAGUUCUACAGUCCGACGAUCUUCUAGACUCUUAAAUAAUCACUGUAUUUUUCUCAAGUAUUUGUUAUUUUUUAUUAUCCUUUAGAUCUUUUUGUUCAUGGCUCUUUAAAAAUAGUUUUACUGAUAAUCCAUGGAAUUCUCGGGUGCCAA | 1.46
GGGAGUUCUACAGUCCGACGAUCGGAUCACUAUUACUGCUGUUGCCACUAGUGAUUCCUAGGAAAUACAUAAUUGACUUUUUCCAACAAAAUGUAUAUUAUUACAUGUUAGAUAAUAAGAACAAUUGUCCCGUUGGAAUUCUCGGGUGCCAA | 0.244

Single results of other studies
Substance | target | assay | system | setting | scale | endpoint | result
PhoQ, residues 284 288 289 292 302 303 AGGCYF | PhoP, residues 12 14 15 18 19 LHSVW (Escherichia coli, UniProt P23836) | Sort-seq, refers to: YFP reporter | E. coli | PhoQ-PhoP variant library, added: 10 µM Mg2+ | baseline: high Mg2+ state, higher = stronger signaling | fold induction | 19.5

Some of these lines once more (series 3):
Strand | RBNS enrichment (R)
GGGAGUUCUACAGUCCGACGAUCCAUUGGAUUGUUAGGGAUAGGCAGCAGGGCUGAGGCAAGGUAGGCCAACUGCACCCCUGUCGCCUGGAGGAGGGCCAGCUCGCUGCCCGAGCUCUGGCCUAGGGACCUUGUGGAAUUCUCGGGUGCCAA | 0.336
